Published values gathered from unrelated publications.
Compare with care: the assays were run in different laboratories. Several values in a cell are separate wells, animals, samples, runs or records. ± gives the spread as reported.
lasR: Transcriptional activator protein LasR (lasR, Pseudomonas aeruginosa, UniProt P25084)
sdiA: Regulatory protein SdiA (sdiA, Escherichia coli, UniProt P07026)
KEAP1: Kelch-like ECH-associated protein 1 (KEAP1, Homo sapiens, UniProt Q14145)
Uncharacterized hydrolase SAUSA300_2518: Uncharacterized hydrolase SAUSA300_2518 (Staphylococcus aureus, UniProt Q2FDS6)
Oprm1: Mu-type opioid receptor (Oprm1, Rattus norvegicus, UniProt P33535)

The reaction velocity of `CON(C(=O)c1cn(C)nc1C(F)F)C(C)Cc1c(Cl)cc(Cl)cc1Cl` (stereo not drawn) is reported as 0.00443 µM/s and 0.00393 µM/s and 0.00394 µM/s (SDHD/SDHC/SDHB (Sus scrofa, UniProt A5GZW8+D0VWV4+Q007T0); enzyme activity, inhibitor, DCIP reduction; pig; 0.3 µM, added: DCIP 20 µM).
With `CCCCCCCCCC(=O)CC(=O)Nc1cccc(OC)c1` the agonist activity was 1% (lasR; reporter gene, agonist; Escherichia coli JLD271; 10 µM, pSC11 and pJN105L plasmids; reference: OdDHL at same concentration).
For `CC(C)C[C@@H](N)C(=O)NCC(=O)N[C@H](C)C(=O)N[C@H](CO)C(=O)N[C@H](Cc1c[nH]c2ccccc12)C(=O)N[C@H](Cc1c[nH]cn1)C(=O)N[C@H](CCCNC(=N)N)C(=O)N1CCC[C@@H]1C(=O)N[C@H](CC(=O)O)C(=O)N[C@H](CCCCN)C(=O)N[C@H](CCCCN)C(=O)N[C@H](CCCNC(=N)N)C(=O)NCCCCCC(=O)N[C@@H](CCCCN)C(=O)N[C@@H](CCCNC(=N)N)C(=O)N[C@@H](CCCCN)C(=O)N[C@@H](CCC(N)=O)C(=O)N[C@@H](CCCNC(=N)N)C(=O)NCC(=O)N1CCC[C@H]1C(=O)NCC(=O)N[C@@H](CCCNC(=N)N)C(=O)N[C@@H](C)C(=O)N[C@@H](Cc1ccccc1)C(N)=O`, cell migration read “inhibited” (C-X-C chemokine receptor type 4 (CXCR4, Homo sapiens, UniProt P61073); chemotaxis, antagonist; SUP-T1; 10 µM, added: SDF-1alpha).
`O=C(Cc1ccc(Br)cc1)N[C@@H]1CCOC1=O` has an Emax of 67.4% (sdiA).
The fluorescence polarization of `CC(C)C[C@@H]1NC(=O)[C@H](C(C)C)NC(=O)[C@H](CCC(=O)O)NC(=O)CNC(=O)[C@H]([C@@H](C)O)NC(=O)[C@H](CCC(=O)O)NC(=O)[C@H](CCC(=O)O)NC(=O)[C@H](CC(=O)O)NC(=O)[C@H](C(C)C)NC(=O)[C@H]([C@@H](C)O)NC(=O)CNC(=O)[C@H](CC(=O)O)NC(=O)[C@@H]2CCCN2C1=O` is reported as 0.197 a.u. (KEAP1; Keap1-Nrf2 binding, inhibitor, competitive FP; 0.3906 µM, 30 min, added: Nrf2 peptide probe; lower = stronger inhibition).
For `COc1cc2c(cc1S(=O)(=O)F)C(=O)NCCC2`, the remaining activity was 93.4% and 92.3% and 92.8% (Uncharacterized hydrolase SAUSA300_2518; enzyme activity, inhibitor, fluorogenic substrate; 10 µM).
`COCC1CCCCN1C(=O)n1cc(C(O)(c2ccccc2)c2ccccc2)nn1` (stereo not drawn): “SILAC activity ratio” 1.49 and 1.31 and 1.48 and 1.47 and 1.59 (Cytosolic acyl coenzyme A thioester hydrolase (Acot7, Mus musculus, UniProt Q91V12); probe labelling, inhibitor, competitive ABPP-SILAC, item: Acot7; mouse T cells; concentration not given, 4 h, single peptide; reference: treated over DMSO cells, lower = stronger inhibition).
`CC(C)[C@@H]1NC(=O)[C@H](CCC(=O)O)NC(=O)CNC(=O)[C@H]([C@@H](C)O)NC(=O)[C@H](CCC(=O)O)NC(=O)[C@H](CCC(=O)O)NC(=O)[C@H](CC(=O)O)NC(=O)[C@H](C(C)C)NC(=O)[C@H]([C@@H](C)O)NC(=O)CNC(=O)[C@H](CC(=O)O)NC(=O)[C@H](CC(N)=O)NC(=O)[C@H](Cc2ccc(O)cc2)NC1=O` gave a fluorescence polarization of 0.234 a.u. and 0.16 a.u. (KEAP1; Keap1-Nrf2 binding, inhibitor, competitive FP; 100 µM, 30 min, added: Nrf2 peptide probe; lower = stronger inhibition).
For `CN(C)CCCSC(=S)N1CCN(C(=O)/C=C/c2coc3ccccc3c2=O)CC1`, the MST response was 842 a.u. (Nucleoprotein (N, Tomato spotted wilt virus, UniProt P25999, R94A); binding, microscale thermophoresis; 0.2441 µM; dose series).
`COc1ccccc1-c1n[nH]c2nc(N[C@H]3CC[C@H](NS(=O)(=O)CC(C)C)CC3)ncc12` gave a remaining binding of 9% (cyclin 9 (Leishmania donovani, UniProt A0A2D1QVA3); competitor, bead pull-down competition; Leishmania donovani extract; 0.08 µM; reference: vehicle).
`CN1CCCN(C(=O)c2ccc(S(=O)(=O)F)cc2)c2ccccc21` has a remaining activity of 112% and 114% (Uncharacterized hydrolase SAUSA300_2518; enzyme activity, inhibitor, fluorogenic substrate; 5 µM).
For `CCCC[C@H]1CNCCN1C[C@@H]1CCCN1C[C@H](CC1CCCCC1)N1CCN(CCc2ccc(Cl)c(Cl)c2)[C@H](Cc2ccc(O)cc2)C1`, the remaining binding was 96.6 ± 5.65% (Oprm1; radioligand binding; rat brain membranes; 500 nM, pH 7.5, 25 °C, added: 0.87 nM [3H]DAMGO).
For `C=CC(=O)NC[C@H](NC(=O)[C@H](CC1CCCCC1)NC(=O)[C@H](CCC(N)=O)NC(C)=O)C(=O)N[C@@H](CC(C)C)C(=O)N[C@@H](Cc1ccccc1)C(=O)O`, the ΔH was -15 kcal/mol (Beta sliding clamp (Escherichia coli, UniProt P0A988); isothermal titration calorimetry; pH 7.4, 37 °C).
The Emax of `O=C(Cc1ccc(Br)cc1)N[C@H]1CCSC1=O` is reported as 91% (sdiA).
For `CC(C)[C@H]1NC(=O)C[C@H]2/C=C/CCSSC[C@@H](NC1=O)C(=O)N[C@H](Cc1cccc3ccccc13)C(=O)NCC(=O)O2`, the inhibition was 0.3% (Testis-specific serine/threonine-protein kinase 2 (TSSK2, Homo sapiens, UniProt Q96PF2); enzyme activity, inhibitor; 10 µM).
`CCCCCCCCCC(=O)CC(=O)NC1CCCCC1=O` (stereo not drawn) has an agonist activity of 89% (lasR; reporter gene, agonist; Escherichia coli JLD271; 10 µM, pSC11 and pJN105L plasmids; reference: OdDHL at same concentration).
With `C[C@H](NCc1ccc(-c2ccc(C(F)(F)F)cc2)cc1)C(N)=O` the inhibition was 0% (Serine/threonine-protein kinase pim-1 (PIM1, Homo sapiens, UniProt P11309); cell-free assay, competition with immobilised ligand; 1 µM).
`[CH3][Ti+2][O]C(=O)c1ccc([S][Au][PH](c2ccccc2)(c2ccccc2)c2ccccc2)cc1.c1cc[cH-]c1.c1cc[cH-]c1` has a remaining activity of 112% and 114% (Mitogen-activated protein kinase 3 (MAPK3, Homo sapiens, UniProt P27361); kinase activity, HotSpot kinase; 1 µM, added: ATP 10 µM).
For `CCCC[C@H]1CNCCN1C[C@@H]1CCCN1C[C@@H](Cc1ccc2ccccc2c1)N1CCN(CCCC2CCCC2)[C@H](Cc2ccc(O)cc2)C1`, the remaining binding was 98.2 ± 5.74% (Oprm1; radioligand binding; rat brain membranes; 500 nM, pH 7.5, 25 °C, added: 0.87 nM [3H]DAMGO).
`N[C@H](C(=O)N1CCCC1)C1CCN(c2nccc3c(-c4ncc(Cl)cc4Cl)cccc23)CC1` has a melting temperature of 66.2 °C and 66.1 °C (Protein-arginine deiminase type-2 (PADI2, Homo sapiens, UniProt Q9Y2J8); thermal shift; 3.004 µM).
For `CCCCCCCCCNC(=O)CC(=O)c1ccccc1`, the potency ratio was 2.3 (lasR; reporter gene, antagonist; reference: IC50 PAO-JP2 over E. coli JLD271).
The activity ratio-of-ratios of `CC(C)CC(O)(CC(C)C)c1cn(C(=O)N2CCCC2)nn1` is reported as 0.67 (Dipeptidyl peptidase 8 (Dpp8, Mus musculus, UniProt Q80YA7); probe labelling, inhibitor, item: Dpp8; mouse, brain; i.p., 0.8 mg/kg, 4 h, protein level; reference: treated over vehicle mice, lower = stronger inhibition).
With `Cc1cc(C)cc(COc2cc3c(cc2OCc2cc(C)cc(C)c2)C2CC(O)(Cc4cn(CCCCCCNC(=O)CNc5cccc6c5C(=O)N(C5CCC(=O)NC5=O)C6=O)nn4)CC(C)N2CC3)c1` (racemic) the degradation was 6% (Rab GDP dissociation inhibitor beta (Homo sapiens, UniProt P50395); degrader, Western blot; PC-3; 2 µM, 24 h).
`CS(C)(=O)=Nc1ccc(-c2ccc(-c3nc4cc(O[C@@H]5CO[C@H]6[C@@H]5OC[C@H]6O)[nH]c4cc3F)cc2)cc1` has an inhibition of 2% (Dual specificity tyrosine-phosphorylation-regulated kinase 1B (DYRK1B, Homo sapiens, UniProt Q9Y463); enzyme activity, inhibitor; 10 µM).
The inhibition of `CN(C)[C@H]1C[C@@]23CC[C@@]4(O2)C(=CC[C@]2(C)[C@@H](c5ccc6ccncc6c5)CC[C@H]24)C=C3[C@@H](O)[C@@H]1O` is reported as 2.6% (Serine/threonine-protein kinase 4 (STK4, Homo sapiens, UniProt Q13043); ATP probe labelling, inhibitor, KiNativ profiling; 1 µM).
`CCCCC/C=C\C/C=C\C/C=C\C/C=C\CCCC(=O)NCCc1ccc(O)c(O)c1`: “maximal open probability” 0.92 ± 0.05 (Transient receptor potential cation channel subfamily V member 1 (Trpv1, Mus musculus, UniProt Q704Y3, S513A); ion current, agonist, whole-cell patch clamp; reference: 3 mM 2-APB current).
`CC[C@@H](C)[C@@H]1CN([C@@H](CC2CCCCC2)CN2CCC[C@H]2CN2CCNC[C@@H]2Cc2ccc3ccccc3c2)CCN1CCC12CC3CC(CC(C3)C1)C2` has a remaining binding of 103 ± 11.3% (Oprm1; radioligand binding; rat brain membranes; 500 nM, pH 7.5, 25 °C, added: 0.87 nM [3H]DAMGO).
The remaining activity of `O=C1NC(=O)c2c1c1cc(F)c[n+]3c1c1c2c2cc(O)ccc2[n]1[Ru-4]312([N]=C=S)[S+]3CC[S+]1CC[S+]2CC3` (stereo not drawn) is reported as 26% (Tyrosine-protein kinase Yes (YES1, Homo sapiens, UniProt P07947); enzyme activity; 100 nM, human enzyme, added: 10 µM ATP; reference: untreated).
`CCCCCC(=O)CC(=O)N[C@H]1CCOC1=O` gave an agonist activity of 61% (lasR; reporter gene, agonist; Escherichia coli JLD271; 10 µM, pSC11 and pJN105L plasmids; reference: OdDHL at same concentration).
`Cc1ccc(NC(=O)CCc2cccc(NC3=CC(=O)N(C4CCC(=O)NC4=O)C3=O)c2)cc1Cl` (stereo not drawn): “log2 fold change” -2.4 (Cereblon/Ikaros (Homo sapiens, UniProt Q13422+Q96SW2); degrader, quantitative proteomics, item: protein abundance; Jurkat; 1 µM, 4 h; reference: DMSO).

A few entries again:
`COc1ccccc1-c1n[nH]c2nc(N[C@H]3CC[C@H](NS(=O)(=O)CC(C)C)CC3)ncc12` gave a remaining binding of 9% (cyclin 9 (Leishmania donovani, UniProt A0A2D1QVA3); competitor, bead pull-down competition; Leishmania donovani extract; 0.08 µM; reference: vehicle).
`CN1CCCN(C(=O)c2ccc(S(=O)(=O)F)cc2)c2ccccc21` has a remaining activity of 112% and 114% (Uncharacterized hydrolase SAUSA300_2518; enzyme activity, inhibitor, fluorogenic substrate; 5 µM).
For `CCCC[C@H]1CNCCN1C[C@@H]1CCCN1C[C@H](CC1CCCCC1)N1CCN(CCc2ccc(Cl)c(Cl)c2)[C@H](Cc2ccc(O)cc2)C1`, the remaining binding was 96.6 ± 5.65% (Oprm1; radioligand binding; rat brain membranes; 500 nM, pH 7.5, 25 °C, added: 0.87 nM [3H]DAMGO).
For `C=CC(=O)NC[C@H](NC(=O)[C@H](CC1CCCCC1)NC(=O)[C@H](CCC(N)=O)NC(C)=O)C(=O)N[C@@H](CC(C)C)C(=O)N[C@@H](Cc1ccccc1)C(=O)O`, the ΔH was -15 kcal/mol (Beta sliding clamp (Escherichia coli, UniProt P0A988); isothermal titration calorimetry; pH 7.4, 37 °C).
The Emax of `O=C(Cc1ccc(Br)cc1)N[C@H]1CCSC1=O` is reported as 91% (sdiA).
